Experimental data from different studies.
Values joined by “and” are separate records of one study, mostly repeats; a detail may differ. ± marks the error that the study gave. Values after ≈ are worked out from the molar mass of the structure shown.

CC(C)c1cnc(-c2cc(Cl)ccc2F)cc1Nc1ccncc1C(=O)NC(CO)CO  unbound Cmax (female C57BL/6 mice, plasma; oral, 100 mg/kg twice daily, day 1, MC-38 tumour-bearing): 0.322 µM
CCC1CNC(CC)CN(C(C(=O)[O-])c2ccc(C(=O)[O-])cc2)C(CC)CN(CC(=O)[O-])C(CC)CN1.[Mn+2] (centres unmarked)  Mn content (ICP-MS; BALB/c mouse, heart; intravenous, 0.05 mmol/kg, 5 min, without anaesthesia): 1.86 ± 0.09 µg/g
CCC(C(=O)Nc1ccc(C(N)=O)c(F)c1)n1cc(OC)c(-c2cc(Cl)ccc2-n2cc(C(F)(F)F)nn2)cc1=O (centres unmarked)  procedure-related adverse events (healthy male humans; 50 mg, required by protocol, with: antacid): 7.1%
CN(C)c1ccc(Nc2n[nH]c3nc(-c4ccccc4)nc(N)c23)cc1  CC50 (HeLa Ohio; 72 h): > 145 µM
C=C(NC(=O)c1csc(-c2nc3c(cc2O)-c2nc(cs2)C(=O)NC(C(C)O)C(=O)NC(=C(C)OC)c2nc(cs2)C(=O)NC2c4nc(cs4)C(=O)NC(COC(=O)c4c5c6c(cccc6n4O)COC(=O)C(OC4CC(C)(O)C(N(C)C)C(C)O4)C2OC5)c2nc-3cs2)n1)C(N)=O (centres unmarked)  AUC(0-t) (ICR mice, Streptococcus pneumoniae ATCC 49169 infected, immunocompromised, blood; intravenous, 16 mg/kg/day three times daily): 1.46 µg·h/mL
CN(Cc1ccccc1)C(=O)CN1CCN(CC(=O)[O-])CCN(CC(=O)N(C)Cc2ccccc2)CC1.[44Sc+3]  tracer uptake (mouse, kidney; intravenous, 1 h): 6.14 %ID/g
COc1cnc2cccc(N3CCc4c(cc(Cn5ccnc5)cc4-c4cn(C)nc4C(F)(F)F)C3=O)c2c1  MRT(0-inf) (male CD-1 mouse, plasma; intraperitoneal, 50 mg/kg): 2.3 h
CC(=O)N([O-])CCCCCNC(=O)CCC(=O)N([O-])CCCCCNC(=O)CCC(=O)N([O-])CCCCCN.[89Zr+4]  intact complex (radio-TLC; aqueous buffer; 5 d, pH 5, 37 °C, 89Zr-labelled complex, with: DTPA 100-fold excess): 95.6 ± 1.3%
Cc1ncsc1-c1ccc(C(C)NC(=O)C2CC(O)CN2C(=O)C(NC(=O)CCCCCCCCCCN2CCCC(Nc3ncc(Cl)c(Nc4ccccc4S(=O)(=O)C(C)C)n3)C2)C(C)(C)C)cc1 (centres unmarked)  log2 fold change (22Rv1; RNA-seq, measured: SALL2 mRNA; concentration not given; baseline: DMSO): -1.46
Cc1ncsc1-c1ccc(CNC(=O)[C@@H]2C[C@@H](O)CN2C(=O)[C@@H](NC(=O)COCC(C)(COCCOCCOCCNC(=O)C[C@@H]2N=C(c3ccc(Cl)cc3)c3c(sc(C)c3C)-n3c(C)nnc32)COCCOCCOCCNC(=O)C[C@@H]2N=C(c3ccc(Cl)cc3)c3c(sc(C)c3C)-n3c(C)nnc32)C(C)(C)C)cc1  concentration (male C57BL/6 mouse, plasma; intravenous, 5 mg/kg, 4 h, single dose): 1.39 µg/mL
N#C[C@@H]1CCCN1C(=O)CNC(=O)c1ccnc2ccc(OCCCN3CCN(C(=O)CCc4ccc(O)c(CN5CCN6CC(=O)[O][Al-]([18F])([O]C(=O)C5)[O]c5ccc(CCC(=O)N7CCN(CCCOc8ccc9nccc(C(=O)NCC(=O)N%10CCC[C@H]%10C#N)c9c8)CC7)cc5C6)c4)CC3)cc12 (some centres unmarked)  tumour-to-organ ratio (BALB/c nude mice, U-87 MG tumour; 120 min post-injection; baseline: tumour over muscle): 16.8 ± 3.47
CC(C)(C)NCC(SS(=O)(=O)O)c1ccccc1 (centres unmarked)  body weight (Swiss Webster mice, Schistosoma mansoni-infected; 200 mg/kg single dose on day 42 post-infection, perfusion day 56 post-infection): 37.3 g
COC1CN([C@H]2CC[C@H]([C@@]3(C)Oc4c(Cl)cc(C(=O)NCc5c(SC)cc(C)[nH]c5=O)c(C)c4O3)CC2)C1  log2 fold change (RNA-seq, measured: PRG2 mouse homolog; mouse, HT-1376 xenograft, whole blood; dose not given; baseline: vehicle): 5.92
Cc1cc(C(=O)Nc2nc3cccc(C)c3n2[C@H]2CCCCN(C(=O)/C=C/CN(C)C)C2)ccn1  brain tissue binding (rat, brain tissue; dose not given): > 99%
COc1cccc(OC)c1-c1cc(C(=O)NC2(C(=O)O)C3CC4CC(C3)CC2C4)nn1-c1ccc(C(=O)N(C)CCOCCN(C)C(=O)[C@H](CCCCNC(=O)[C@H](CC(C)C)NC(=O)C2OC2C(=O)O)NC(=O)CN2CCN(CC(=O)[O-])CCN(CC(=O)[O-])CCN(CC(=O)[O-])CC2)cc1C(C)C.[177Lu+3] (mixture of isomers)  tumour-to-muscle ratio (mouse, HT-29 xenograft; 168 h post injection, biodistribution; baseline: tumour over muscle uptake): 1.91
O=C(c1ccccc1)N1C(c2ccc(OCC3CCN(CCCF)C3)cc2)c2ccc(O)cc2CC12CC2 (centres unmarked)  AUC(0-inf) (C57BL/6J mouse, plasma; oral, 25 mg/kg): 2.48 µg·h/mL and 3.48 µg·h/mL
CN(Cc1ccccc1)C(=O)CN1CCN(CC(=O)[O-])CCN(CC(=O)[O-])CC1.[18F-].[Sc+3]  tracer uptake (mouse, bone; intravenous, 1 h): 1.5 %ID/g
C=CC(=O)Nc1cc(Nc2nccc(-c3c[nH]c4ccccc34)n2)c(OC)cc1N(C)CCN(C)C  recovery (storage stability; human plasma; 5 h, -80 °C, high QC level): 90.3%
Cc1cccc(Nc2n[nH]c3nc(-c4ccccc4)nc(N)c23)c1  CC50 (HeLa Ohio; 72 h): 87.5 µM
CC(C)OCCOCc1ccc(OCC(O)CN(N=O)C(C)C)cc1 (centres unmarked)  revertant fold increase (Escherichia coli; Ames test; WP2 uvrA; 5 µg/plate, without metabolic activation; baseline: solvent control): 0.6 fold
O=C([O-])CN1CCN(CC(=O)[O-])CCN(Cc2cccc(C(=O)[O-])n2)CC1.[177Lu+3]  tracer uptake (mouse, brain; intravenous, 1 h): 0.04 %ID/g
CC(C)(O)c1ccc(N2Cc3c(ccnc3-c3ccc(F)cc3OCC(F)(F)F)C2=O)cc1  concentration (male C57BL/6 mouse, plasma; oral, 100 mg/kg, 6 h): 11.3 µg/mL
CN(Cc1ccccc1)C(=O)CN1CCN(CC(=O)[O-])CCN(Cc2cccc(C(=O)[O-])n2)CC1.[177Lu+3]  tracer uptake (mouse, liver; intravenous, 1 h): 2.37 %ID/g
C/C(N)=N/C(=N\S(=O)(=O)c1ccc(C(F)(F)F)cc1)N1C[C@H](c2ccccc2)C(c2ccc(Cl)cc2)=N1  AUC(0-inf) (C57BL/6 mouse, liver; intravenous, 10 mg/kg, observed value): 110 µg·h/mL
CN(CCCO)Cc1ccc(-c2noc(-c3ccc(OCC[18F])c(C(F)(F)F)c3)n2)cc1F  brain uptake (Sprague-Dawley rat, male, brain; intravenous, 5 min): 0.93 ± 0.02 %ID/g
CN([O-])C(=O)CN1CCN(CC(=O)N(C)[O-])CCN(CC(=O)N(C)[O-])CC1.[89Zr+4]  intact complex (radio-TLC; human serum; 2 days, run 2): 100%
O=C(Nc1cnccc1-c1ccc([18F])cc1)c1ccnc(NC(=O)C2CC2)c1  SUV (FVB/NJ mice (both sexes), skin; intravenous, dose not given, 120 min, with: tariquidar 15 mg/kg i.v. pre-dose): 0.23
OB(O)c1sccc1/C=N/OCc1ccccc1  half-life (chemical stability; PBS; 80 µM): ~2 h
COc1ccc2c(c1)C(C)(C)C(/C=C/C1=C(Oc3ccc(C(=O)NCCCCOc4cc(CN(Cc5ccccn5)Cc5ccccn5)cc(CN(Cc5ccccn5)Cc5ccccn5)c4)cc3)C(=C/C=C3/N(CCCCS(=O)(=O)[O-])c4ccc(OC)cc4C3(C)C)CCC1)=[N+]2CCCCS(=O)(=O)[O-].O=[N+]([O-])[O-].O=[N+]([O-])[O-].[99Tc+].[C-]#[O+].[C-]#[O+].[C-]#[O+].[Zn+2]  intact compound (radio-TLC; formulation buffer; 2 h, room temperature): 98.7%
COc1cccc(OC)c1-c1cc(C(=O)NC2(C(=O)O)C3CC4CC(C3)CC2C4)nn1-c1ccc(C(=O)NCCNC(=O)[C@H](CCCCNC(=O)[C@H](CC(C)C)NC(=O)C2OC2C(=O)O)NC(=O)CN2CCN(CC(=O)[O-])CCN(CC(=O)[O-])CCN(CC(=O)[O-])CC2)cc1C(C)C.[177Lu+3] (mixture of isomers)  tumour-to-muscle ratio (mouse, HT-29 xenograft; 24 h post injection, biodistribution; baseline: tumour over muscle uptake): 52.9
COC1C=COC2(C)Oc3c(C)c(O)c4c(c3C2=O)C2=NC3(CCN(CC(C)C)CC3)NC2=C(NC(=O)C(C)=CC=CC(C)C(O)C(C)C(O)C(C)C(OC(=O)Nc2cccnn2)C1C)C4=O (centres unmarked)  elimination half-life (CD-1 mouse female, plasma; intravenous, 5 mg/kg): 2.5 h
O=S1(=O)CC2CCCCC2CS1 (centres unmarked)  solubility (phase solubility, NMR; water; 25 °C, with: hydroxypropyl-β-cyclodextrin 1009 mM): 117 mM (≈ 24.1 mg/mL)
CC[C@H](C)[C@@H]1NC(=O)[C@H](Cc2ccc(O)cc2)NC(=O)CCCSC[C@@H](C(=O)N(CC(=O)N[C@@H](CC(C)C)C(=O)NCC(N)=O)Cc2ccc(F)cc2)NC(=O)[C@H](CC(N)=O)NC(=O)[C@H](CCC(N)=O)NC1=O  severe adverse events (human; intranasal, 200 µg repeated doses): 0%
O=C(O)CCCOc1ccc([18F])cc1-c1cc(-c2ccccc2C(F)(F)F)n(-c2ccccc2)n1  absorbed dose (OLINDA/EXM from mouse data; human adults, liver): 11.5 µGy/MBq
C=C[C@]1(C)C[C@@H](OC(=O)CSc2ccc(NC(=O)c3ccco3)cc2)[C@]2(C)[C@H](C)CC[C@]3(CCC(=O)[C@H]32)[C@@H](C)[C@@H]1O  plasma concentration (Mycoplasma gallisepticum-infected chickens, plasma; intramuscular, 40 mg/kg, 8 h): 0.0464 µg/mL and 0.0758 µg/mL and 0.108 µg/mL and 0.0542 µg/mL and 0.0432 µg/mL and 0.0788 µg/mL and 0.023 µg/mL and 0.0857 µg/mL
